Assay results of several laboratories.
Parts stem from different laboratories: compare values within a part only. Substitutions count along the parent as printed.
UniProt O15294, sequence (whole entry, looked up): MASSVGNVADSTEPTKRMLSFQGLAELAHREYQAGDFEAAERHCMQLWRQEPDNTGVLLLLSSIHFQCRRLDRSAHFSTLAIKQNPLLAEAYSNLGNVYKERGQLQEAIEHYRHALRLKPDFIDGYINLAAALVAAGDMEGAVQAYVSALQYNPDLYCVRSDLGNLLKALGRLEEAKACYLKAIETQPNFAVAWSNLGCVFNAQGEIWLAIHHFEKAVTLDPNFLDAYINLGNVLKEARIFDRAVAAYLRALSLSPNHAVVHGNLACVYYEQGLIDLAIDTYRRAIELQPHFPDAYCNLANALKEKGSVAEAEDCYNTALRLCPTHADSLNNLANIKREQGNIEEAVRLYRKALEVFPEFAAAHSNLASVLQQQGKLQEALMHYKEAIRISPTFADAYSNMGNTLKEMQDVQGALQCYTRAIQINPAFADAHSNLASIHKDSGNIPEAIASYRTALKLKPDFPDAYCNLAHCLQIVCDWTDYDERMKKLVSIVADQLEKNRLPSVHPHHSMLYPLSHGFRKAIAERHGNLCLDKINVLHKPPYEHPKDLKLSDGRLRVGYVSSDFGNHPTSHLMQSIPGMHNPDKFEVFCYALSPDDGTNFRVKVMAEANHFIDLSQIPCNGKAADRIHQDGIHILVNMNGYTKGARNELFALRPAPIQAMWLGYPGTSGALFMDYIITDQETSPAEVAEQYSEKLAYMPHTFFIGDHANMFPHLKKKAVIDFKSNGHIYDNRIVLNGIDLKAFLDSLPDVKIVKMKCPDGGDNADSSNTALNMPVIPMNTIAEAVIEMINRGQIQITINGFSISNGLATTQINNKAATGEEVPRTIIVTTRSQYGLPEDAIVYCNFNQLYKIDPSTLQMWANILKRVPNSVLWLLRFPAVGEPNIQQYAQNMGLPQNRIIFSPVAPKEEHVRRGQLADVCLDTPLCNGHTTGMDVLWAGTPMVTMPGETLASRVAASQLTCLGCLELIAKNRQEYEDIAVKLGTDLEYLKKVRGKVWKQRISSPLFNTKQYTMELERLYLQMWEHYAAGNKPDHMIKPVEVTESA

Set 1
Target: CEP164, C-terminal peptide (human)
Method: DHFR complementation, deep sequencing
Medium: yeast
Notes: single substitutions, model-inferred values
Baseline: wild type
Reading: higher = weaker binding
Measurement: binding free energy change
Parent: PDZK1, PDZ domain 2 (human); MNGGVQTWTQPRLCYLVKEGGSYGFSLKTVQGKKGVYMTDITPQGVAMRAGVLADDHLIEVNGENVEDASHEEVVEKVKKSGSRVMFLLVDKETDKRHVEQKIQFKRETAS; partner HNRVKVYRF
V5D: 0.0487 kcal/mol
K102S: -0.114 kcal/mol
V74F: 0.769 kcal/mol
L53D: 0.93 kcal/mol
K33F: 0.345 kcal/mol
V99H: -0.159 kcal/mol
L58Y: 0.963 kcal/mol
P43Q: 0.196 kcal/mol

Set 2
Target: RING finger protein unkempt homolog, zinc fingers 1-6, SBP tag (UNK, Homo sapiens, UniProt Q9C0B0, residues 30-357)
UniProt Q9C0B0, sequence (30-357, looked up): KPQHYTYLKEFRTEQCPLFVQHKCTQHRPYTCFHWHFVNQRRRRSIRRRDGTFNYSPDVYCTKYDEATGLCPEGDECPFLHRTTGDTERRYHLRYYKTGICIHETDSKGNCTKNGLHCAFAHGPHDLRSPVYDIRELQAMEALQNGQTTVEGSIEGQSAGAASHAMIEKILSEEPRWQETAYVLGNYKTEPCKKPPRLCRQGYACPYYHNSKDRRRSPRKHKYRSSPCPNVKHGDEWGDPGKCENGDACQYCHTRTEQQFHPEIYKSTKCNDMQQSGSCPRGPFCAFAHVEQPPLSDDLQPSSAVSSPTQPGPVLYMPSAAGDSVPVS
Method: RNA Bind-n-Seq
Molecule type: RNA
Medium: in vitro
Tested at: 100 nM
Notes: RNA with constant flanks, vertebrate orthologous sites, ends assumed
Baseline: input RNA pool
Reading: higher = stronger binding
Measurement: bound/input enrichment
Constant ends, left off below: GGGAGUUCUACAGUCCGACGAUC … CAACAGAGGAUUGAGCAUCA
AAGAACUCUUGCAGUCUUAGAUGUUAUAAAAAAUAUGUAUAUCUGAAUUGUAAGAGUUGUUAGCACAGGGUUUUUUUUUUUUUAAGCACUUGUUUUGGGUACAAGGCAUGUCUGAAAUUU: 0.32 ratio
AGUAUCCCAGUUGUACUGUGUUGGGUUGGCAUUGUACAGAAAUUAACAGCCAUAUUGGUCUAGAAAUGUUCAACAUACUUUUUUCCAUUUGUACAGGGGUAACGCACUGUAUUAAAUAUA: 0.597 ratio
CUCUAUGGGCCUCGCAGAGUUGAAGUAAUGGAAGAGGACAGUGAACAGUAAUCUUCAUUUUAGUAUUUAUGCUUAGAUGUGAAAUAAAUGUUAUUUGUUGAUCAUUUCUAUAAUCCAGAA: 0.4 ratio
AGCUUCUGGUGACAUUUGGCCUGGCCUUUCAGCAUAUGAUAACAGUCCAAGGUCACCCCAUAGUCCUUCUAUUGCCUCCCCACCCAGUCAGAGUUCAUCUUGCUCUGAUGCCCCCUUGCU: 0.626 ratio
AGCAACCCAAGGAUUCAGGACUGGUUUUACAAAUAUACCAAGCAGAUACGGAACUAACAAUAGAAUUGGACAACCAAGACCAUGAUGUACUGUAAUUUAAUUUAUUUUUAUGAAGAAUAU: 0.646 ratio
CAUCAGGUUUCUAGCUUCACAUUCCUGCAUAUUGCAUUUGAGAACAUGAAAGGUACAAUUAUACCCUUUCUUAAAGAUGACUUAAAUUCUACAGUAUGUCUUGGUCACUUAAAUAAAACC: 0.797 ratio
ACAAUAGCUUCUGCUUCACUAAGAGCGUAAAAAUAGUCCCACAAAUAUAAAACUCCUAAAGAGCUAUUUUUUAAAUAAAAUGUUUAAAUUUGAUAAAUCACUUGAUGCCACAACACAACC: 0.902 ratio
ACGCUUGCAUCGUGGCAAACAGCCAACAUGGAAGUAGACGGGCUCUGCUGAUCUGAAAUUUACAUUUUUAAUUAUGUACUGGGGACAGGUUUUUGUCGCUUUACAUUGCUUCCUAGUUUA: 0.64 ratio

Set 3
Target: Ras GTPase-activating protein-binding protein 1, full length (G3BP1, Homo sapiens, UniProt Q13283)
UniProt Q13283, sequence (whole entry, looked up): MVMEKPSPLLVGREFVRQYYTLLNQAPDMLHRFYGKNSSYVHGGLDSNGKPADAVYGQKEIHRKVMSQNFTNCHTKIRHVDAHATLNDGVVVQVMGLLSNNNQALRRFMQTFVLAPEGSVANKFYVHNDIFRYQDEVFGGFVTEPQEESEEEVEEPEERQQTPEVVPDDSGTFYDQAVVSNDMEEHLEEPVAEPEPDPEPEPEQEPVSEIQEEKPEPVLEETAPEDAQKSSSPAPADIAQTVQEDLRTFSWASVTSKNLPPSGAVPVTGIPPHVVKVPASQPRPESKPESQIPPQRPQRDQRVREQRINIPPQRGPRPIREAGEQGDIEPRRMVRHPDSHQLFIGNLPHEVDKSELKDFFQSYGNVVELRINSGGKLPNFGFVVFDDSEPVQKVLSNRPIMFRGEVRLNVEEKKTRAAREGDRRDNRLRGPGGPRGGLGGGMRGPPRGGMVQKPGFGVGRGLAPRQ
Method: RNA Bind-n-Seq
Molecule type: RNA
Medium: in vitro
Tested at: 200 nM
Notes: whole 134-nt RNA, ends assumed
Added: 150 mM LiCl
Baseline: input library
Reading: higher = stronger binding
Measurement: log2 enrichment
All molecules: 7-deaza-guanosine replaces G
Constant ends, left off below: GGGAGUUCUACAGUCCGACGAUC … UGGAAUUCUCGGGUGUCAAGG
CACAGACAACACGCACCCAAACAGACACAGAGGGAAGGGGUUGGGAUGGGGACAGGGUGCACAGCAGGGCGGGGUAGGACCCCAGCCCCU: 0.148
CCUCAAGUCCUGUGCUACACAUCGUAUGUACCGAAUCGGAGGAAAAAGGAGGAAAGUAUUAUGUUACGCCGUUCGGAUCUGCACUUCCAG: -0.131
CACAGACAACACGCACCCACACAGACACAGAGGGAAGGGGUUGGGAUGGGGACAGGGUGCACAGCAGGGCGGGGUAGGACCCCAGAAACU: -1.39
UGGCCCUGGUGGCAUGCGGGGAGGAAGAGGUGGCAUCAUGGAUCGUGGUGGUCCCGGUGGAAUGUUCAGAGGUGGCCGUGGUGGAGACAG: 0.331
UAACUUUAGAGGAGGAUCUGAUGGAUAUGGCAGUGGACGUGGAUUUGGGGAUGGCUAUAAUGGGUAUGGAGGAGGACCUGGAGGUGGCAC: 0.617
UGGGAGGUGGAUUUUGUUGAUUUUUUUAGCUCAUUUCCAGGGGUGGGAAUUUUUUUUUAAUAUGUGUCAUGAAUAAAGUUGUUUUUGAAA: -0.114
UUCAAGGAAAAACAAGAGGAGCAGGCUCGCCUCCUUGAUGAACUGGCAGGCAAGCUACAAAGCCUAGACCUUUCAGCCGCUGCCGAAAUG: -2.66
UCAAGUCCUGUGCUACACAUCGUAUGUACCGAAUCGGGUUUGGUUUGGUUUGGGGAAAGUAUUAUGUUACGCCGUUCGGAUCUGCACUUC: -0.428

Other studies, line by line
VWPPQNHVHSEMMRH
minimum log2 enrichment ratio (UDP-N-acetylglucosamine--peptide N-acetylglucosaminyltransferase 110 kDa subunit (OGT, Homo sapiens, UniProt O15294); binding, phage display NGS; peptide; panning round 2; baseline: input library): 2.16

Repeated from above (set 1):
V74F: 0.769 kcal/mol
L53D: 0.93 kcal/mol
K33F: 0.345 kcal/mol
V99H: -0.159 kcal/mol
